# Published values of several laboratories.
# A part holds a random share of what one study measured.

# Sample 1
# Target: RNA binding protein fox-1 homolog 2, RRM domain, GST-SBP tag (RBFOX2, Homo sapiens, UniProt O43251-10, residues 100-194)
# Method: RNA Bind-n-Seq
# Form: RNA
# Sample: in vitro
# Tested at: 365 nM
# Setting: natural RNA segment, single round, ends assumed
# Baseline: no-protein control
# Reading: higher = stronger binding
# Construct (chain): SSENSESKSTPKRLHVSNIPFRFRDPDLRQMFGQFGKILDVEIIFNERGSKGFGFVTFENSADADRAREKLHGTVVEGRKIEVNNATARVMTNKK
Strand,RBNS enrichment (R)
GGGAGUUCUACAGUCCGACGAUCGGUCCCUCUCUGGUCUGACGCUCCCUAUAGGUUCCACCGCACGACAGCCUGUCCAUCAAAACUUGUCCUGUACCCAGGACAGUACCAGCUUCCUGUCCCCCGACCCUAACUGGAAUUCUCGGGUGCCAA,2.59
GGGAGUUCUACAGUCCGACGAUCUGCUUAAAGCACGGCUUACUUCAUCUGCUCCUUACACACUAAAAUGCUGUUAGUGUGCUCAACUACAGAAAUAGCCGCUGCUAAGUGAUGUAGAUUUUCUACUUGAAUAUUGGAAUUCUCGGGUGCCAA,0.478
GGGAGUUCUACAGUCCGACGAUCCAUGAAGGAAAAGAAUAGGGAAAAGCUUUCAGCAGUUAUUUAGCCCUUACUCAAAAUCAGAUAAUUAACAAUGAAGGAAACUCUAAACUCCCCUUAUGGUCUACCAGUAAUGGAAUUCUCGGGUGCCAA,0.339
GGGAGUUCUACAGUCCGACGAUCGAGGGAAGGGAUUUUGAGUCACAUUAGCCUCAGGUUAGUGUUUGGCUCCAGUAAUAUCUUGCCCGAAAAGUGGUCGUCUUCCAAGCAUGGUGUUCUGGGUCCCAGCCUUGUGGAAUUCUCGGGUGCCAA,0.645
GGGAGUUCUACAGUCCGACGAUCGUGGCUCAGUUAAGGAAUGAGAAGAUAGAGGGUCCUCCACUUUCAGCUCAUGCUUUUUUAUGUAGGACUAGCUUACCUGAUUUUAAUGAAAAUCACAUUUUGAUACAAACUGGAAUUCUCGGGUGCCAA,0.382
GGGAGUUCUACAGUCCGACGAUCUGCCCCGCUGGGUCUGCAGGGAACUGGACUGUCCCAUGGCCUGUGAGCACCGGAGCGCCUGGCUGCCUGCCAAGGAAGUGCAAUUGCAUAAAAACAGAAAGAACAACGCCUGGAAUUCUCGGGUGCCAA,0.414
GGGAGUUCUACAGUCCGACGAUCGCGGGACAGGCAAGAGACGUUCGUUCCAAGAGGAUUCUCAUAAGGGAAGUGACGGUUCUUAGAGGAGAAAAGCAAAAGGCUUGGGAGAUCCACAUGGCCUGUCCCCGUGAUGGAAUUCUCGGGUGCCAA,0.81
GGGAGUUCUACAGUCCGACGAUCGAGAGCAGGUGUACACCCAACCAAAGUGAUUGUGCCCUUGGUUGGGGGGCGCGGGCAUAUAACCUGUCAGAAGCAAACAGGAGCGGCAACUUCUAACUUUGCUCCAAGCCUGGAAUUCUCGGGUGCCAA,0.72
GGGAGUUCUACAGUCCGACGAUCUUCGGCAUAGACUCGUGUAUUUUACCAGCCUAUAAUCGUGCUGAGUGUUGGUUUCCUGCCCCUCCUUCCCACCUUUCUGGUUCUGCAGACUUGGAGGGGUUUAUUGACUCUGGAAUUCUCGGGUGCCAA,0.581
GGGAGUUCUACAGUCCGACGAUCGUCCUUCUCUGCCAGGCUUGGCACAUGAUGUGAAGAAUAAAUGCCCAAUUCUUACUGUUCAGGUUUGAUGUGGAAUCACAGCUGCAGUGAUAUAUAUUUUUUAUCAGUGCUGGAAUUCUCGGGUGCCAA,0.229
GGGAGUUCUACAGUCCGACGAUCAUGUAUAGAUUUCAGAAUAUAAGAUAUGACUGUACAUAAUUGUAAUAAAUACGAGUUGCCAUAUUUAUUCCUGGCUCUGACCUCGUCUGCUAGCCCGUGCCUCGGAGGUGUGGAAUUCUCGGGUGCCAA,0.442
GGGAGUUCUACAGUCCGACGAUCGAUUCUGAUGUCAGUAUUGUGUCACCUGAGCGGGAUGAUUACCUGAGUACCAUAGGAACUUUGUACCAGUUGGAAUUUAAGUGGACUGUUUGCUGCUUUUGUUCGCAUUGUGGAAUUCUCGGGUGCCAA,0.456

# Sample 2
# Target: Histone acetyltransferase KAT6A, both winged helices, GST fusion (KAT6A, Homo sapiens, UniProt Q92794, residues 1-181)
# Method: protein binding microarray
# Form: double-stranded DNA, one strand shown
# Sample: in vitro
# Tested at: not given
# Setting: 8-mer, flanks averaged, mean of 2 arrays, mostly near background
# Baseline: not given
# Reading: higher = stronger binding
# Residues (chain): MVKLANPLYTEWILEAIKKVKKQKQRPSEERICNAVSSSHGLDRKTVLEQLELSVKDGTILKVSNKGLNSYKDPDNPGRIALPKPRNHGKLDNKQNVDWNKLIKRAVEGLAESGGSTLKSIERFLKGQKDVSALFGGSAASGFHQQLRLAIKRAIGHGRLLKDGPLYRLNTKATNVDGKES
Strand,E-score
AATACGGA,0.227
CACGGAGA,0.184
ACCAGGTA,-0.336
ACTGCTAG,-0.0167
ACGCAACT,-0.0474
TGTGGTAA,-0.12
GGGTAAGA,-0.18
CAACAGCG,0.174
ACCGTTAG,0.085
GGAAGAAA,-0.0318
CGACCTGC,0.0194
AATGCGAA,0.00822
CACCCTTC,-0.258
CGAGGTCC,0.032
ACCGAGGT,0.0154
CCTTTACA,-0.0942
ATCATTGC,-0.144
ACACTTAG,-0.175
ACGATATC,-0.0406
CAATTGTG,-0.0474
GGGACACC,0.0784
TAACTGTA,-0.0755
ATAGAGGG,-0.131
CGCGGGGA,0.32

# Sample 3
# Target: Prothrombin, mature alpha-thrombin (F2, Homo sapiens, UniProt P00734)
# Method: aptamer microarray, sandwich
# Form: DNA with 2'F-ANA
# Sample: in vitro
# Tested at: 200 nM
# Setting: whole 15-mer aptamer, many near background
# Together with: Cy3 exosite-II aptamer, 400 nM
# Reading: higher = stronger binding
# Strand: GGTTGGTGTGGTTGG
Modification,mean fluorescence intensity [a.u.]
2'F-ANA at 1 4 6 7 9 10,50
2'F-ANA at 4 5 6 7 11 14,43.8
2'F-ANA at 1 2 4 7 8 9 11 13,85.4
2'F-ANA at 1 4 5 9 10 13 15,48.9
2'F-ANA at 4 6 7 8 9 10 12,125
2'F-ANA at 2 3 10 12 14,359
2'F-ANA at 1 8 9 10 13 15,81
2'F-ANA at 2 3 4 5 6 8 10 11 12 13 15,50.4
2'F-ANA at 1 3 5 9 11 12 13,79.4
2'F-ANA at 2 4 7 8 9 10 11 12 13 14 15,64
2'F-ANA at 2 4 9 10 11 15,80
2'F-ANA at 4 5 8 11 12 15,104
2'F-ANA at 1 3 4 5 7 8 12 13,89.3
2'F-ANA at 1 5 6 9 10 12 13 15,47.1
2'F-ANA at 2 4 5 6 7 9 10 12 15,50.7
2'F-ANA at 1 2 3 8 9 12 15,546
2'F-ANA at 2 4 5 6 7 9 14 15,138
2'F-ANA at 7 9 10 12 13 14 15,118

# Sample 4
# Target: Fragile X messenger ribonucleoprotein 1, C-terminal low-complexity region (Fmr1, Mus musculus, UniProt P35922)
# Method: RNA Bind-n-Seq
# Form: RNA
# Sample: in vitro
# Tested at: 200 nM
# Setting: whole 134-nt RNA, ends assumed
# Together with: 150 mM LiCl
# Baseline: input library
# Reading: higher = stronger binding
# Each molecule: 7-deaza-guanosine replaces G
Strand,log2 enrichment
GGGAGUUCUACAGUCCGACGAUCGCAGGAAGUAAAAACAAAUGGAAAUGCUUCGGAUAGUGGCAGGGGUGGGGGUUGCUAAGGAAAGGGUGGGAUGGGAGUGGGUAAAGAGUUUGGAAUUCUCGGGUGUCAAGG,1.34
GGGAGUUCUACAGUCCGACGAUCUCCUGUGCUACACAUCGUAUGUACCGAAUCGGGAAAAAAGGAAAAAAGGGGAAAAAAGGGAAAGUAUUAUGUUACGCCGUUCGGAUCUGCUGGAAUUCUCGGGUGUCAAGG,-0.499
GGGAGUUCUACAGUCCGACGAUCUAACUUUAGAGGAGGAUCUCAUGGAUAUGGCAGUGGACGUGGAUUUGGGGAUGGCUAUAAUGGGUAUGGAGGAGGACCUGGAGGUGGCAAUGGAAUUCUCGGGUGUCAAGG,-0.214
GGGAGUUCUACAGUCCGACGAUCGCAGGAAGUAAAAACAAAUGGAAAUGCUUCGGAUAGUGGCAGGGGUGGGGGUUGCUAAGGAAAGGGUGGUAUGGGAGUGGGUAAAGAGUUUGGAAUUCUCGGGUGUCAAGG,1.51
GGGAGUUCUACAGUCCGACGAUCACCAUGCAGGUGGGCAUCUUUGGGAAGUGGGGCAAGGGGGGGAUAGGGAGGGGGGUACCACUUUGGGAACAGGUGGUCCCAGGUCGUUUCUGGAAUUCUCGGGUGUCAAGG,1.26
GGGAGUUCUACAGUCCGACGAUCUUCCUCAAGUCCUGUGCUACACAUCGUAUGUACCGAAUCGGAGGUGGAGGAAAGUAUUAUGUUACGCCGUUCGGAUCUGCACUUCCAGCAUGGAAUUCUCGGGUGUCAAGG,-2.31
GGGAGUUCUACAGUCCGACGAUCACCAUGCAGGUGGGCAAAAUUGGGAAGUGGGGCAAGGGGGGGAUAGGGAGGGGGGUAACACUUUGGGAACAGGUGGUCCCAGGUCGUUUCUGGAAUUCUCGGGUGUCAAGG,1.47
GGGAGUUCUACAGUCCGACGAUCUAACUUUAGAGGAGGAUCUGAUGGAUAUGGCAGUGGACGUGGAUUUGGGGAUGGCUAUAAUGAGUAUGGAGGAGGACCUGGAGGUGGCAAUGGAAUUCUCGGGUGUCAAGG,0.994
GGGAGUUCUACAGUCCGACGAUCCACAGACAACACGCACCCACACAGACACAGAGGGAAGGGGUUGGGAUGGGGACAGGGUGCACAGCAGGGCGGGGUAGGACCCCAGCUCCUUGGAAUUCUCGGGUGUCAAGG,-0.783
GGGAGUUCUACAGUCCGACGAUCACCAUGCAGGUGGGCAUCUUUGGGAAGUGGGGCAAGGGGGGGAUAGGGAGGGGGGUAACACUUCGGGAACAGGUGGUCCCAGGUCGUUUCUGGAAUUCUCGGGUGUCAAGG,1.42
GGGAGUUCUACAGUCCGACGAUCAAGUCCUGUGCUACACAUCGUAUGUACCGAAUCGGUUUUUGGAAAAAGGAAAAAGGAAAGUAUUAUGUUACGCCGUUCGGAUCUGCACUUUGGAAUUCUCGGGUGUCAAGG,-2.01

# A few entries again (sample 4):
Strand,log2 enrichment
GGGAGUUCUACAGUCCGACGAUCGCAGGAAGUAAAAACAAAUGGAAAUGCUUCGGAUAGUGGCAGGGGUGGGGGUUGCUAAGGAAAGGGUGGGAUGGGAGUGGGUAAAGAGUUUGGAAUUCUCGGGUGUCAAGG,1.34
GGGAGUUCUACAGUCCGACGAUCUAACUUUAGAGGAGGAUCUCAUGGAUAUGGCAGUGGACGUGGAUUUGGGGAUGGCUAUAAUGGGUAUGGAGGAGGACCUGGAGGUGGCAAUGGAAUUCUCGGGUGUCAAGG,-0.214
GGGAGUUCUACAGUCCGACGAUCAAGUCCUGUGCUACACAUCGUAUGUACCGAAUCGGUUUUUGGAAAAAGGAAAAAGGAAAGUAUUAUGUUACGCCGUUCGGAUCUGCACUUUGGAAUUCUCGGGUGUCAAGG,-2.01
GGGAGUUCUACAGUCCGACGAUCCACAGACAACACGCACCCACACAGACACAGAGGGAAGGGGUUGGGAUGGGGACAGGGUGCACAGCAGGGCGGGGUAGGACCCCAGCUCCUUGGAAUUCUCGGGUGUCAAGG,-0.783
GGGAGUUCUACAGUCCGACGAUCUAACUUUAGAGGAGGAUCUGAUGGAUAUGGCAGUGGACGUGGAUUUGGGGAUGGCUAUAAUGAGUAUGGAGGAGGACCUGGAGGUGGCAAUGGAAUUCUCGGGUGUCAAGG,0.994
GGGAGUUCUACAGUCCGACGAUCUUCCUCAAGUCCUGUGCUACACAUCGUAUGUACCGAAUCGGAGGUGGAGGAAAGUAUUAUGUUACGCCGUUCGGAUCUGCACUUCCAGCAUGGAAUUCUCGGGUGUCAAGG,-2.31
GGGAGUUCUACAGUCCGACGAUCACCAUGCAGGUGGGCAUCUUUGGGAAGUGGGGCAAGGGGGGGAUAGGGAGGGGGGUAACACUUCGGGAACAGGUGGUCCCAGGUCGUUUCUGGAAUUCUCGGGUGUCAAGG,1.42
